Measurements from different studies.
Protocols differ between the studies behind these lines. Numbers after ± are the reported error.

SMILES | test | test system | conditions | scale | endpoint | result
CCCC[C@H](NC(=O)CNC(=O)[C@H](CO)NC(=O)CNC(=O)c1ccc(NN)nc1)C(=O)N[C@H]1CC(=O)NCCCC[C@@H](C(N)=O)NC(=O)[C@H](Cc2c[nH]c3ccccc23)NC(=O)[C@H](CCCNC(=N)N)NC(=O)[C@@H](Cc2ccccc2)NC(=O)[C@H](Cc2c[nH]cn2)NC1=O [technetium-99m labelled] | – | C57 mouse, B16/F1 melanoma, brain | intravenous, 2 h | – | uptake | 0.07 ± 0.11 %ID/g
N=C(N)NCCC[C@@H]1NC(=O)[C@H](CCCCNC(=O)c2ccc(CNC34CNCCNCC(NCc5ccc(C(=O)NCCCC[C@@H]6NC(=O)[C@@H](Cc7ccc(O)cc7)NC(=O)[C@H](CC(=O)O)NC(=O)CNC(=O)[C@H](CCCNC(=N)N)NC6=O)cc5)(CNCCNC3)CNCCNC4)cc2)NC(=O)[C@@H](Cc2ccc(O)cc2)NC(=O)[C@H](CC(=O)O)NC(=O)CNC1=O [copper-64 labelled] | HPLC | nude mouse, U-87 MG xenograft, blood | 1 h post injection | – | intact compound | > 95%
N=C(N)NCCC[C@@H]1NC(=O)[C@H](CCCCNC(=O)CNC(=O)CNC(=O)CNC(=O)CC[C@H](NC(=O)CCOCCOCCOCCOCCNC(=O)CC[C@H](NC(=O)CN2CCN(CC(=O)O)CCN(CC(=O)O)CCN(CC(=O)O)CC2)C(=O)NCCOCCOCCOCCOCCC(=O)N[C@@H](CCC(=O)NCC(=O)NCC(=O)NCC(=O)NCCCC[C@@H]2NC(=O)[C@@H](Cc3ccccc3)NC(=O)[C@H](CC(=O)O)NC(=O)CNC(=O)[C@H](CCCNC(=N)N)NC2=O)C(=O)NCC(=O)NCC(=O)NCC(=O)NCCCC[C@@H]2NC(=O)[C@@H](Cc3ccccc3)NC(=O)[C@H](CC(=O)O)NC(=O)CNC(=O)[C@H](CCCNC(=N)N)NC2=O)C(=O)NCC(=O)NCC(=O)NCC(=O)NCCCC[C@@H]2NC(=O)[C@@H](Cc3ccccc3)NC(=O)[C@H](CC(=O)O)NC(=O)CNC(=O)[C@H](CCCNC(=N)N)NC2=O)NC(=O)[C@@H](Cc2ccccc2)NC(=O)[C@H](CC(=O)O)NC(=O)CNC1=O [indium-111 labelled] | – | athymic nude mice, female, U-87 MG glioma xenograft, tumour and blood | intravenous, 1 h | reference: tumour over blood | tumour to tissue ratio | 80.7 ± 10.7
CCCC[C@H](NC(=O)CCCCCCCNC(=O)c1ccc(NN)nc1)C(=O)N[C@H]1CC(=O)NCCCC[C@@H](C(N)=O)NC(=O)[C@H](Cc2c[nH]c3ccccc23)NC(=O)[C@H](CCCNC(=N)N)NC(=O)[C@@H](Cc2ccccc2)NC(=O)[C@H](Cc2c[nH]cn2)NC1=O [technetium-99m labelled] | – | C57 mouse, B16/F1 melanoma, blood | intravenous, 24 h | – | uptake | 0.09 ± 0.03 %ID/g
CCCC[C@H](NC(=O)CNC(=O)CNC(=O)c1ccc(NN)nc1)C(=O)N[C@H]1CC(=O)NCCCC[C@@H](C(N)=O)NC(=O)[C@H](Cc2c[nH]c3ccccc23)NC(=O)[C@H](CCCNC(=N)N)NC(=O)[C@@H](Cc2ccccc2)NC(=O)[C@H](Cc2c[nH]cn2)NC1=O [technetium-99m labelled] | – | C57 mouse, B16/F1 melanoma, liver | 2 h, with: L-lysine 12 mg | – | uptake | 0.35 ± 0.05 %ID/g
N=C(N)NCCC[C@@H]1NC(=O)[C@H](CCCCNC(=O)CC[C@H](NC(=O)CCOCCOCCOCCOCCNC(=O)CN2CCN(CC(=O)O)CCN(CC(=O)O)CCN(CC(=O)O)CC2)C(=O)NCCCC[C@@H]2NC(=O)[C@@H](Cc3ccccc3)NC(=O)[C@H](CC(=O)O)NC(=O)CNC(=O)[C@H](CCCNC(=N)N)NC2=O)NC(=O)[C@@H](Cc2ccccc2)NC(=O)[C@H](CC(=O)O)NC(=O)CNC1=O [indium-111 labelled] | – | female athymic nude mice, lungs | intravenous, 3 µCi, 24 h, U-87 MG glioma xenograft | – | tissue uptake | 0.78 ± 0.09 %ID/g
CSCC[C@H](NC(=O)[C@H](CC(C)C)NC(=O)[C@H](Cc1c[nH]cn1)NC(=O)CNC(=O)[C@@H](NC(=O)[C@H](C)NC(=O)[C@H](Cc1c[nH]c2ccccc12)NC(=O)[C@H](CCC(N)=O)NC(=O)CCCCCNC(=O)CNC(=O)CNC(=O)CNC(=O)CSC(C)=O)C(C)C)C(N)=O [technetium-99m labelled] | – | Swiss mouse, kidney | intravenous, 18.5 MBq, 90 min | – | tissue uptake | 0.62 ± 0.01 %ID/g
C[C@H](NC(=O)CNC(=O)[C@H](CCC(=O)O)NC(=O)[C@H](CCC(=O)O)NC(=O)[C@H](CC(=O)O)NC(=O)[C@@H]1CCCN1C(=O)[C@H](Cc1ccccc1)NC(=O)[C@H](CS)NC(=O)[C@H](Cc1ccc(O)cc1)NC(=O)CCCNC(=O)CNC(=O)CNC(=O)[C@@H](C)NC(=O)CN)C(=O)N[C@@H](CS)C(=O)N[C@@H](Cc1ccc(O)cc1)C(N)=O [technetium-99m labelled] | HPLC | human serum | 1 h, 37 °C | – | radiochemical purity | 97.14 ± 0.45%
N=C(N)NCCC[C@@H]1NC(=O)[C@H](CCCCNC(=O)CCOCCOCCOCCOCCNC(=O)CN2CCN(CC(=O)O)CCN(CC(=O)O)CCN(CC(=O)O)CC2)NC(=O)[C@@H](Cc2ccccc2)NC(=O)[C@H](CC(=O)O)NC(=O)CNC1=O [indium-111 labelled] | – | athymic nude mice, female, U-87 MG glioma xenograft, tumour and heart | intravenous, 1 h | reference: tumour over heart | tumour to tissue ratio | 6.36 ± 1.25
CC[C@H](C)[C@H](NC(=O)[C@@H](NC(=O)[C@H](CC(N)=O)NC(=O)[C@H](CCC(N)=O)NC(=O)[C@@H]1CCCN1C(=O)[C@@H](NC(=O)[C@H](Cc1ccc(O)cc1)NC(=O)CNC(=O)[C@H](Cc1ccc(O)cc1)NC(=O)[C@H](Cc1c[nH]c2ccccc12)NC(=O)[C@H](Cc1c[nH]cn1)NC(=O)[C@H](Cc1ccc(O)cc1)NC(=O)CNC(=O)CCOCCOCCOCCNC(=S)Nc1ccc(C2=[N+]3C(=C(c4ccc(OC)cc4)c4cc(Cl)c(-c5ccc(OC)cc5)n4[B-]3(F)F)C=C2Cl)cc1)[C@@H](C)O)C(C)C)C(N)=O | SPR | buffer with 4% DMSO | pH 7.5 | – | aggregation threshold | > 10 µM

A few entries again:
SMILES | test | test system | conditions | scale | endpoint | result
N=C(N)NCCC[C@@H]1NC(=O)[C@H](CCCCNC(=O)CC[C@H](NC(=O)CCOCCOCCOCCOCCNC(=O)CN2CCN(CC(=O)O)CCN(CC(=O)O)CCN(CC(=O)O)CC2)C(=O)NCCCC[C@@H]2NC(=O)[C@@H](Cc3ccccc3)NC(=O)[C@H](CC(=O)O)NC(=O)CNC(=O)[C@H](CCCNC(=N)N)NC2=O)NC(=O)[C@@H](Cc2ccccc2)NC(=O)[C@H](CC(=O)O)NC(=O)CNC1=O [indium-111 labelled] | – | female athymic nude mice, lungs | intravenous, 3 µCi, 24 h, U-87 MG glioma xenograft | – | tissue uptake | 0.78 ± 0.09 %ID/g
